Assay results collected from several papers.
Every numbered part comes from another study and shows a few of its results, in no order. Changes are numbered by the printed parent chain.

Block 1 — method: RNA Bind-n-Seq; form: RNA; matrix: in vitro; concentration: 365 nM; baseline: no-protein control; reading: higher = stronger binding
Target: RNA binding protein fox-1 homolog 2, RRM domain, GST-SBP tag (RBFOX2, Homo sapiens, UniProt O43251-10, residues 100-194)
Setting: natural RNA segment, single round, ends assumed
All sequences stand within: GGGAGUUCUACAGUCCGACGAUC … UGGAAUUCUCGGGUGCCAA
Residues (chain): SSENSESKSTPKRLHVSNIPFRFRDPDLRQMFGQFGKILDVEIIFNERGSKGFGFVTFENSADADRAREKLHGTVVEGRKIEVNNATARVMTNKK
| Strand | RBNS enrichment (R) |
| --- | --- |
| AUAUGCAUAUAUGAGUGUUAUAUUGCAAAAUCUUUGUUUUACUUACAUGGUUAAAGCAGCAAGAAUUCUUUUGUUGAUAUGUAAUUAUACACAUAAAAUAUAUAUAUGUA | 0.374 |
| UUCUGUGAACAGCAUCAUAACUUCUAUCAUGGAAAGUGUACUAUAUAUAAUGUUUGUGUCAUGUAUAUGCCUAAAUUUUAAUUAUCUAUAAAUAAAACAUCUGACAUAAA | 0.356 |
| GCUCUUGGAUGUUGGGAGUGUAGCAGGCACAGGAGGUACCUCUGCAGAAGGAAGGCGGAGGGUGGAGGCCUUGCCUUUCCAUAUUCACCUAGGUCUUGUCUUUCAACUUG | 1.09 |
| CAGGGGCCAUAUCUGUAUUAACUGGAUCAAGUAUAAGAAAAGCAAAGACUUCUCAGCUCUGACCUGCCUGCCUCCUUGGAAUUAGACUUGAACUUCUGAUCCUGCCUAUC | 0.73 |
| GUGUCUGCAGGGUUUGUCAGUACUCGUCAAAGCCAAGUCCAAUUAAAAAAAAAAGUCUUUGCCCUCCAAUUUGUGUUUGAUGUUGACUUUCAGUAUGGGUAAAAAUAGGC | 0.534 |
| UCCUGUAAUAGACUCGGGUCCUGUCCACGGCCCUGGCCGCCCACAAUCCAGCCCACAAAUCCACAUGGCUGUUCCCAGCAGUGCUGUGGUACACUGUGACAGUGGCUCUA | 0.421 |
| CUGGACAUGUUCUCUCGGCUGGCUUUCUGUUCCCCGCCUGCCUCCAGGAGGCCAGGGUGGUGGUGCUGCUAGGCCAUCCCAAUGUUAGGCUUGUGGGUGAUUCCCCGGGC | 0.255 |
| UGCGCUAGCCCCUGGCUGAGAGGAGAGAACCUGUCCUCUGCCGGUGCUCAGUCAAGUGAUGGCUCCCUGCCCUUCUGUGCUCCCAGCCUGCCUCCCCCAGGGCAGGUUGG | 0.262 |

Block 2 — target: tungstate, free oxyanion; method: microfluidic competitive inhibition; matrix: in vitro, cell-free expressed; concentration: not given; reading: lower = stronger binding
Setting: derived from inhibition constants, unchanged parent 2230 nM
Parent: PafA, mature enzyme, eGFP fusion (Elizabethkingia meningoseptica, UniProt Q9KJX5); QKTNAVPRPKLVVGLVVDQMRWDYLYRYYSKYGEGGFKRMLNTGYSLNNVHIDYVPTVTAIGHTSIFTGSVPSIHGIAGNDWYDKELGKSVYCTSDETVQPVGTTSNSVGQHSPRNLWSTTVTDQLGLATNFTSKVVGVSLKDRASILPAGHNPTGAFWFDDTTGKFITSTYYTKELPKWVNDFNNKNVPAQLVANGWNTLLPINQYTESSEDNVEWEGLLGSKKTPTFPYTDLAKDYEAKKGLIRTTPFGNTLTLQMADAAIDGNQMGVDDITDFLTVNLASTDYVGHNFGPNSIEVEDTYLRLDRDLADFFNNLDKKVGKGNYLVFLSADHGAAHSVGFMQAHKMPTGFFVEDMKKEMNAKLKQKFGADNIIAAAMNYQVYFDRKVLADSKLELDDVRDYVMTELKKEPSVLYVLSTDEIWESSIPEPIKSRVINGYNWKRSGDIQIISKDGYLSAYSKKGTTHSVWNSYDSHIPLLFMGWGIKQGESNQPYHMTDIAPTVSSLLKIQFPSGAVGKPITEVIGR
| Substitution | oxyanion analog dissociation constant |
| --- | --- |
| Y173V | 1.83 µM |
| G488A | 2.14 µM |
| R526V | 3.55 µM |
| S338V | 2.23 µM |
| I447V | 2.55 µM |

Block 3 — method: RNAcompete; form: RNA; matrix: in vitro; concentration: 20 nM; setting: 7-mer, probes averaged, single round; baseline: mean of 7-mers; reading: higher = stronger binding
Target: PABPC1L2, full length, GST fusion (mouse, UniProt A0ABA7IW68)
Target sequence (chain): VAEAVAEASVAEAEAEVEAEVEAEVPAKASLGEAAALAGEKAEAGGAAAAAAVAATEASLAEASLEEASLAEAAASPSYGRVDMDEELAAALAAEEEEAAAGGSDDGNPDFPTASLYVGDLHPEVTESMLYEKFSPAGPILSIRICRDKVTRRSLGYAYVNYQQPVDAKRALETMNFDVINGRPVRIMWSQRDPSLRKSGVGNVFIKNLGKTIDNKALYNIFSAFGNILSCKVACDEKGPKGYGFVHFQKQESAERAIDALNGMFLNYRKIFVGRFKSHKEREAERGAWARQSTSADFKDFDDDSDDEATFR
| Strand | 7-mer Z-score |
| --- | --- |
| AAGCUGC | 0.218 |
| ACAGGCC | 0.066 |
| CAUCGCA | -0.171 |
| AUGCCUA | -0.202 |
| AUCAAGC | -0.0264 |
| CAAGGCA | 0.224 |
| UUGUAGG | -0.228 |
| UUAUAAU | -0.11 |

Block 4 — target: CCND2, cyclin fold, Cln2 fusion (human); method: yeast growth competition, sequencing; matrix: yeast; setting: weak parent motif; baseline: not given; reading: higher = stronger binding; parent: viral docking peptide; TSVRRALFTGGSD
| Substitution | normalised enrichment score |
| --- | --- |
| S2C | 0.237 |
| V3I | 0.176 |
| G10L | -0.0348 |
| R4D | -0.112 |
| G10D | -0.0518 |
| R5I | 0.151 |
| R5G | 0.0741 |
| T9S | -0.0287 |
| G11L | -0.072 |
| S2G | 0.0607 |
| A6Q | 0.239 |
| S12V | 0.0254 |
| F8C | -0.296 |
| T9N | -0.0149 |
| A6S | -0.246 |
| F8N | 0.187 |
| R5W | -0.0137 |

Repeated from above (block 1):
| Strand | RBNS enrichment (R) |
| --- | --- |
| CUGGACAUGUUCUCUCGGCUGGCUUUCUGUUCCCCGCCUGCCUCCAGGAGGCCAGGGUGGUGGUGCUGCUAGGCCAUCCCAAUGUUAGGCUUGUGGGUGAUUCCCCGGGC | 0.255 |
| UGCGCUAGCCCCUGGCUGAGAGGAGAGAACCUGUCCUCUGCCGGUGCUCAGUCAAGUGAUGGCUCCCUGCCCUUCUGUGCUCCCAGCCUGCCUCCCCCAGGGCAGGUUGG | 0.262 |
| CAGGGGCCAUAUCUGUAUUAACUGGAUCAAGUAUAAGAAAAGCAAAGACUUCUCAGCUCUGACCUGCCUGCCUCCUUGGAAUUAGACUUGAACUUCUGAUCCUGCCUAUC | 0.73 |
